# Measured values from different studies.
# Each numbered part is a random draw from the data of one study; scales do not carry over between parts. Several values in a cell are separate wells, animals, samples, runs or records.
# Sequence of UniProt P51955 (whole entry, looked up): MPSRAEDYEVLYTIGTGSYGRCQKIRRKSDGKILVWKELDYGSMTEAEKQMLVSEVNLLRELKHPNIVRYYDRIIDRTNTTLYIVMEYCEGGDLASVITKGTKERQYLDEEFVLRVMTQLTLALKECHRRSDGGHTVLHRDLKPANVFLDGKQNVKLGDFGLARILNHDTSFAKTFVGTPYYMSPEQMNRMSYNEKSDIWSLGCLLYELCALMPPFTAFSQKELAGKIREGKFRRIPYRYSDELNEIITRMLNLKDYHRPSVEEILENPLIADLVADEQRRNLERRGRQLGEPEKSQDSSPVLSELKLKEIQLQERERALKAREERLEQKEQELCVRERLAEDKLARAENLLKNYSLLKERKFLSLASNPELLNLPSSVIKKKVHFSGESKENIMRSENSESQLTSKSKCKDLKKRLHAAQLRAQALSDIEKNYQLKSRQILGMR
# Sequence of UniProt Q07002 (whole entry, looked up): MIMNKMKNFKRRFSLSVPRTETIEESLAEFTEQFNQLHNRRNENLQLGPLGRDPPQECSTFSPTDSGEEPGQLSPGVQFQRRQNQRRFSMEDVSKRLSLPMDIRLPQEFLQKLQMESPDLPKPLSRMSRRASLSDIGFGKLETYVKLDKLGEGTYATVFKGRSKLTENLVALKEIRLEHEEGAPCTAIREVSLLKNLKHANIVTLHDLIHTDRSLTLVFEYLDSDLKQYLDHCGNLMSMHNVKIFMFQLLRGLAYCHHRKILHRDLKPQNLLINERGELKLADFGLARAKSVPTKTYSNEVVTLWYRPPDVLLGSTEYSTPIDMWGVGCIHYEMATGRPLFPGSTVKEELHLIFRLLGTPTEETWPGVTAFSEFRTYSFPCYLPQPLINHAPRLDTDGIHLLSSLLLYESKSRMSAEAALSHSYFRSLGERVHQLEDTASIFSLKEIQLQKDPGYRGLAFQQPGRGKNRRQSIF
# Sequence of UniProt Q92772 (whole entry, looked up): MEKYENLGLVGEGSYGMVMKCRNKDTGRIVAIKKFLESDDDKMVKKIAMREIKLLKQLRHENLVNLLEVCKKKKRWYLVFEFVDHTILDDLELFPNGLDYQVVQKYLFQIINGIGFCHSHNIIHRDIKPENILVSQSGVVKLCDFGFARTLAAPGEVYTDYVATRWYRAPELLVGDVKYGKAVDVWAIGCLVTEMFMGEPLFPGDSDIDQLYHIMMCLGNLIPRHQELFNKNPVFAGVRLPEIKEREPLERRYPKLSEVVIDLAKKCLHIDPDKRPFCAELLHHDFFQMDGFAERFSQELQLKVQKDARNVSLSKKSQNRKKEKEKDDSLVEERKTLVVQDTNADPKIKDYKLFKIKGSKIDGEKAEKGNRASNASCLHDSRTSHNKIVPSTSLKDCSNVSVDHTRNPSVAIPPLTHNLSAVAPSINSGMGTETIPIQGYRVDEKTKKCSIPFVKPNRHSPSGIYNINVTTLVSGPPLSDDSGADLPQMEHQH
# Sequence of UniProt Q86UE8 (whole entry, looked up): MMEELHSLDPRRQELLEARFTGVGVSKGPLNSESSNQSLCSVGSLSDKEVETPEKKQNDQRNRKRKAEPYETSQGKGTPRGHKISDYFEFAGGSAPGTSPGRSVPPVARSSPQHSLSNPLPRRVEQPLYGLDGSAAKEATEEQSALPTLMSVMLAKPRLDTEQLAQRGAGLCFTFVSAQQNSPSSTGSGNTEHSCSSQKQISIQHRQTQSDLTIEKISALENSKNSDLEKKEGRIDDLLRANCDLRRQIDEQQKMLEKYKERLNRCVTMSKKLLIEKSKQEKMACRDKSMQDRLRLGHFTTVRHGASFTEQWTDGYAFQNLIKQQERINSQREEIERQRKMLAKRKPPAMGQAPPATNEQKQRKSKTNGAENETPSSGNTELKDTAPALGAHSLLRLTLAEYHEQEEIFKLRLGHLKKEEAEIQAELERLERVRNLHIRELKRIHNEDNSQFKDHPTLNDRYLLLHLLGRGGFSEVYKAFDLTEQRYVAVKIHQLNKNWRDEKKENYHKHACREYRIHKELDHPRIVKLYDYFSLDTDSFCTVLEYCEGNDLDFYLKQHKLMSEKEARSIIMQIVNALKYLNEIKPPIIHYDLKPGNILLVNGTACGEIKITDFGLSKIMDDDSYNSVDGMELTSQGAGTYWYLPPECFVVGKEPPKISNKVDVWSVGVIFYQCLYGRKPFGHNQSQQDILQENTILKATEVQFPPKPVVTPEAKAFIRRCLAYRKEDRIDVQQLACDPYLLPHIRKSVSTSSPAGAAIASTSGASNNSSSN
# Sequence of UniProt Q96NX5 (whole entry, looked up): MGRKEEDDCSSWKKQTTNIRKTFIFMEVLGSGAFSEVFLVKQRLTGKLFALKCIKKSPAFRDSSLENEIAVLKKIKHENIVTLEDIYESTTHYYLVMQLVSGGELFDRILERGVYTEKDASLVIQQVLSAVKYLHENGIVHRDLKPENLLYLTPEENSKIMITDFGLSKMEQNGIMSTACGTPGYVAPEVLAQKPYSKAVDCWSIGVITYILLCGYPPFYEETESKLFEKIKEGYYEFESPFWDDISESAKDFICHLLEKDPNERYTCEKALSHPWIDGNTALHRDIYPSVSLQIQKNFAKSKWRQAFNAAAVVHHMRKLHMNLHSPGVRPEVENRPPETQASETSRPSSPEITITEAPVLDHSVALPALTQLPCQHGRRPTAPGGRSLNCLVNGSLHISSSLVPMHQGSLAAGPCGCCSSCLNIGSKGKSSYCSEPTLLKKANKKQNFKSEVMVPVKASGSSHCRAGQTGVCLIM
# Sequence of UniProt P10721 (whole entry, unmodified, looked up): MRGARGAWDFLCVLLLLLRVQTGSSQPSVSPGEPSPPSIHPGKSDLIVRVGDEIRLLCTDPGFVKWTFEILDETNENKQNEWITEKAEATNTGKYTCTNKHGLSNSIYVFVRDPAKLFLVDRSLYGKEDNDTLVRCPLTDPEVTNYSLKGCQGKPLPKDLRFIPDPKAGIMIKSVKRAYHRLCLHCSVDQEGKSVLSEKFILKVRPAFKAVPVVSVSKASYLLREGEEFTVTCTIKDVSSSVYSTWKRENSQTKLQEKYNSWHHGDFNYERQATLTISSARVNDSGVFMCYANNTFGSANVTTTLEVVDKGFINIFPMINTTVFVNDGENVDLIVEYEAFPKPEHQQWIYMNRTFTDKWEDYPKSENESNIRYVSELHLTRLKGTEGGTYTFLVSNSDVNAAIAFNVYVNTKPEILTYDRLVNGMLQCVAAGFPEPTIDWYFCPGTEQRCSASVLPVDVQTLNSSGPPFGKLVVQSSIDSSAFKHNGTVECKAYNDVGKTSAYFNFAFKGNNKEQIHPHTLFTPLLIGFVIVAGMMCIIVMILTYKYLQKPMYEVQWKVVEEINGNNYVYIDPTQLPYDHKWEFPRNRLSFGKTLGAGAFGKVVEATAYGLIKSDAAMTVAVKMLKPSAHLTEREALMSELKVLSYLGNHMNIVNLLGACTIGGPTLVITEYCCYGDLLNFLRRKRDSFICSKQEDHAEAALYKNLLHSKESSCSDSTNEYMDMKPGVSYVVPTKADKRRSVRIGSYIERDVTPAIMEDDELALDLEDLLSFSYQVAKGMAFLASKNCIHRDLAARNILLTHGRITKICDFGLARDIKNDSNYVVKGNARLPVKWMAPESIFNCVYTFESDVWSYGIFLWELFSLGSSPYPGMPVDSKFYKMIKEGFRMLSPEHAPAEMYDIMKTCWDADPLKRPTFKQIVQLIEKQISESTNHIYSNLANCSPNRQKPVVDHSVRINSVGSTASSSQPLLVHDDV
# Sequence of UniProt P37023 (whole entry, looked up): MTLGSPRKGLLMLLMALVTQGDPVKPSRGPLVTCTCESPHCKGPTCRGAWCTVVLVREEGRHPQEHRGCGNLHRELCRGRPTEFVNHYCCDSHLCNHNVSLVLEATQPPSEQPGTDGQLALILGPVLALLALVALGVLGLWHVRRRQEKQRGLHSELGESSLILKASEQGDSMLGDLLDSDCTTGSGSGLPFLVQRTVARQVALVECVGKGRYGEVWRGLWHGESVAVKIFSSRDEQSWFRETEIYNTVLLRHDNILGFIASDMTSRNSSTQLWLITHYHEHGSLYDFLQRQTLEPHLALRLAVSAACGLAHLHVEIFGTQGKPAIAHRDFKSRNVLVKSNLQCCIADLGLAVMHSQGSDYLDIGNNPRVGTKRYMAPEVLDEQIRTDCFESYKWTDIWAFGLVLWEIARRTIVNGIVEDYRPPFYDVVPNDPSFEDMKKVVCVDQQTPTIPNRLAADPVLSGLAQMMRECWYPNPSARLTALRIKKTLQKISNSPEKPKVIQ
# Sequence of UniProt Q8IVW4 (whole entry, looked up): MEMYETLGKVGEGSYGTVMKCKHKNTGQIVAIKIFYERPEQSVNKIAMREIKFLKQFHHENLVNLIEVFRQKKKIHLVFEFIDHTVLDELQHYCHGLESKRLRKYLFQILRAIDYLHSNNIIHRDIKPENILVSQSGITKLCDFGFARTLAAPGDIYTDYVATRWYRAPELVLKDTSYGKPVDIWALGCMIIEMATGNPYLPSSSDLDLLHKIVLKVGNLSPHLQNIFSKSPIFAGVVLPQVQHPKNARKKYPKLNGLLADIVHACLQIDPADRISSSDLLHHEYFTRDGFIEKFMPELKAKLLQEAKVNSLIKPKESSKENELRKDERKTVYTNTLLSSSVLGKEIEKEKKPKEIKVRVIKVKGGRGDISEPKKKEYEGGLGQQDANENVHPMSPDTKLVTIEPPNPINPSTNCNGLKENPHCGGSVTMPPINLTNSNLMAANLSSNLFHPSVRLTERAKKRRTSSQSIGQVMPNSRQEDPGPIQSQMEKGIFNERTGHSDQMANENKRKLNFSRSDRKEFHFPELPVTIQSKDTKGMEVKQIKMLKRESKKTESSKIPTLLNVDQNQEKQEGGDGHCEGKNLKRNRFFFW

# Study 1 — tested at: 1 µM
# SMILES: O=S(=O)(NC1CCC(c2cc(F)ccc2F)(S(=O)(=O)c2ccc(Cl)cc2)CC1)C(F)(F)F (centres unmarked)
target,effect on,technique,remaining binding [%]
"Leucine-rich repeat serine/threonine-protein kinase 2 (LRRK2, Homo sapiens, UniProt Q5S007)",cell-free assay,competition with immobilised ligand,96
"Cyclin-dependent kinase-like 3 (CDKL3, Homo sapiens, UniProt Q8IVW4)",cell-free assay,competition with immobilised ligand,100
"Serine/threonine-protein kinase Nek2 (NEK2, Homo sapiens, UniProt P51955)",cell-free assay,competition with immobilised ligand,98
"Activin receptor type-1-like (ACVRL1, Homo sapiens, UniProt P37023)",binding,competition with immobilised ligand,100
"Mast/stem cell growth factor receptor Kit (KIT, Homo sapiens, UniProt P10721, V559D)",cell-free assay,competition with immobilised ligand,95
"Platelet-derived growth factor receptor alpha (PDGFRA, Homo sapiens, UniProt P16234)",cell-free assay,competition with immobilised ligand,100
"Cyclin-dependent kinase-like 2 (CDKL2, Homo sapiens, UniProt Q92772)",cell-free assay,competition with immobilised ligand,100
"Calcium/calmodulin-dependent protein kinase type 1G (CAMK1G, Homo sapiens, UniProt Q96NX5)",cell-free assay,competition with immobilised ligand,100
"Phosphatidylinositol 4,5-bisphosphate 3-kinase catalytic subunit alpha isoform (PIK3CA, Homo sapiens, UniProt P42336, C420R)",binding,competition with immobilised ligand,36
"Dual specificity tyrosine-phosphorylation-regulated kinase 2 (DYRK2, Homo sapiens, UniProt Q92630)",cell-free assay,competition with immobilised ligand,100
"Cyclin-dependent kinase 18 (CDK18, Homo sapiens, UniProt Q07002)",cell-free assay,competition with immobilised ligand,100
"Serine/threonine-protein kinase MRCK gamma (CDC42BPG, Homo sapiens, UniProt Q6DT37)",,competition binding,100
"Tyrosine-protein kinase ABL1, phosphorylated (ABL1, Homo sapiens, UniProt P00519, H396P)",cell-free assay,competition with immobilised ligand,100
"Mitogen-activated protein kinase kinase kinase 20 (MAP3K20, Homo sapiens, UniProt Q9NYL2)",cell-free assay,competition with immobilised ligand,92
"Serine/threonine-protein kinase tousled-like 2 (TLK2, Homo sapiens, UniProt Q86UE8)",cell-free assay,competition with immobilised ligand,100

# Study 2 — cell line: Huh-7; tested at: 10 µM; time: 24 h
SMILES,viability [%]
C=CCSCC1Nc2cc(Cl)c(S(N)(=O)=O)cc2S(=O)(=O)N1 (centres unmarked),97.1
CN(C)c1ccc(C(=C2C=CC(=[N+](C)C)C=C2)c2ccc(N(C)C)cc2)cc1,51.9
O=C(O)c1cccnc1,100

# Study 3 — cell line: mouse MPNST tumor cells; technique: high-content immunofluorescence imaging; item: nuclear SOX9; tested at: 10 µM; time: 12 h; setting: mean of 2 replicates; baseline: DMSO control; reading: higher = more nuclear SOX9
Structure (SMILES),nuclear SOX9 intensity
CCCn1c(=O)[nH]c2nc(-c3ccc(S(=O)(=O)N4CCN(c5ccc(Cl)cc5)CC4)cc3)[nH]c2c1=O,106 % of DMSO
NS(=O)(=O)c1cc2c(cc1Cl)NC(C(Cl)Cl)NS2(=O)=O (centres unmarked),96.1 % of DMSO
CCCn1c(=O)c2[nH]c(-c3ccc(OCC(=O)NCCN)cc3)nc2n(CCC)c1=O,104 % of DMSO
CN(C)CCc1c[nH]c2ccc(C[C@H]3COC(=O)N3)cc12,87.7 % of DMSO and 102 % of DMSO
CC(C)(C)C(=O)OCOC(=O)[C@@H]1N2C(=O)[C@@H](NC(=O)[C@H](N)c3ccccc3)[C@H]2SC1(C)C,87.3 % of DMSO

# Study 4 — effect on: enzyme activity; mode: inhibitor; tested at: 0.5 µM; baseline: control
# Target: MAP/microtubule affinity-regulating kinase 3 (MARK3, Homo sapiens, UniProt P27448)
# Residues (P27448 1-753): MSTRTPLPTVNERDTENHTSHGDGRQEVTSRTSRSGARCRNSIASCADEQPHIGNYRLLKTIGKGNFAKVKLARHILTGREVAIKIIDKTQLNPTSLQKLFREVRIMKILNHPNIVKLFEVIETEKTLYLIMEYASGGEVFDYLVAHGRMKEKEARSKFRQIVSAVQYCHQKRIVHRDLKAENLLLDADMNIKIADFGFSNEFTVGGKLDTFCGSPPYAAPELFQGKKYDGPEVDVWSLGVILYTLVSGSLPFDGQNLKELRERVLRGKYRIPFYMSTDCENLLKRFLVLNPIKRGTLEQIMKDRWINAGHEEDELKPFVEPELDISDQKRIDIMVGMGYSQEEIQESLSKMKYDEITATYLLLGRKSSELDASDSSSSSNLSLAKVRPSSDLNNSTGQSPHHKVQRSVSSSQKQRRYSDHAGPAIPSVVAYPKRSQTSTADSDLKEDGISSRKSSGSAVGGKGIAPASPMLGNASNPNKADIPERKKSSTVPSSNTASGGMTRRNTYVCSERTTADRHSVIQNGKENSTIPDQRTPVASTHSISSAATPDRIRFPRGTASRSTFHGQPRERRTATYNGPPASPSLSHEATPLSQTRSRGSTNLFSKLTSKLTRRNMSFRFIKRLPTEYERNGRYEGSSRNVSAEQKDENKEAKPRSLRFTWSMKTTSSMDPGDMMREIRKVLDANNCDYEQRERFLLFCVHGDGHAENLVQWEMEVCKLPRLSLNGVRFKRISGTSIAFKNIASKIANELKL
Structure (SMILES),remaining activity
CCCCc1c(-c2ccc(O)cc2)[nH]c2nccnc12,88.2%
N#C/C(=C(/N)SC1C=CC=CC1)c1cccc(C(O)c2ccncc2)c1 (centres unmarked),93.9%
NC(=O)c1cccc(-c2cc(Nc3ccc(OC(F)(F)F)cc3)ncn2)c1,100%
N#CC(c1ccnc(NCCc2cccnc2)n1)c1nc2ccccc2s1 (centres unmarked),94.9%
CCN(CC)CCCCN1c2ccccc2Oc2ccc(Cl)cc21,102%
COc1cc2c(N3CCN(C(=O)Nc4ccc(OC(C)C)cc4)CC3)ncnc2cc1OCCCN1CCCCC1,103%
COc1cc2c(Nc3ccc(Br)cc3F)ncnc2cc1OCC1CCN(C)CC1,106%
C[C@@H](N)[C@H]1CC[C@H](C(=O)Nc2ccncc2)CC1,97.4%
Nc1nc(Nc2ccc(S(N)(=O)=O)cc2)nn1C(=S)Nc1c(F)cccc1F,0.29%
CC(C)n1cnc2c(Nc3cccc(Cl)c3)nc(NCCO)nc21,92.3%
NC(=O)c1ccc(-c2nc(-c3ccc4c(c3)OCCO4)c(-c3ccccn3)[nH]2)cc1,105%
CNc1cc2c(Nc3cccc(Br)c3)ncnc2cn1,82.2%
O=C(c1ccccc1)c1ccc(N2CCOCC2)cc1O,105%
CC(C)N(CCC(=O)c1ccc2ccccc2c1)Cc1ccccc1,101%
O=C1NC(=O)/C(=C/c2ccc3c(c2)OC(F)(F)O3)S1,92.3%
O=C1c2ccccc2-c2nc3nnnn3nc21,78.1%
O=c1c(-c2ccc(F)cc2)c(-c2ccncc2)[nH]n1-c1ccc(Cl)cc1,87.2%
Clc1ccc(Nc2nnc(Cc3ccncc3)c3ccccc23)cc1,102%
CC(C)(C)c1nc2c3cc[nH]c(=O)c3c3cc(F)ccc3c2[nH]1,55.9%
O=Nc1c(-c2c(O)[nH]c3ccccc23)[nH]c2ccccc12,85.8%
O=C(O)/C=C/c1cc(Br)c(Br)c(Br)c1Br,104%
c1cc(-c2cnn3cc(-c4ccc(OCCN5CCCCC5)cc4)cnc23)ccn1,58.4%
FC(F)(F)c1ccc(/C=C/c2nc(COc3ccc(CCCCn4ccnn4)cc3)co2)cc1,96.6%

# Single results of other studies
SMILES,host,dose,setting,measurement,result
CC(C)n1cnc(-c2ccc(F)cc2)c1-c1ncc(C(=O)Nc2ccc(N3CCN(C)CC3)cc2)[nH]1,"human, idiopathic pulmonary fibrosis",60 mg once daily,"trial, treatment-emergent",patients with ECG T wave abnormal,0%
